Results collected from several papers.
Every numbered part comes from another study and shows a few of its results, in no order.

Block 1 — method: protein-binding microarray; molecule type: double-stranded DNA, one strand shown; sample: in vitro; concentration: 250 nM; setting: 60-bp whole probe; added: salmon DNA 0.4 mg/ml; baseline: random background probes; reading: higher = stronger binding; endpoint: log fluorescence; shared flanks, not repeated: GCCTAGCAC … GTCTTGATTCGCTTGACGCTGCTG
Target: Interferon regulatory factor 5, full length, phosphomimetic (IRF5, Homo sapiens, UniProt Q13568-2, residues 1-514, K96S/S451D/S453D/S456D/S462D)
AACGAACTGAGTCTCGAGACGTGCTAG: -0.0574 z-score
TCAGGTTTCGGTCTCGGTTAGTGCTAG: 10.2 z-score
GACGGTCGCCTTTTCCTGACGTGCTAG: -0.276 z-score
GACGGACTGCTTATCCTAACGTGCTAG: -0.233 z-score
TCACATGTTTTTTTCTAACTGTGCTAG: 1.06 z-score
TTAGGTCTCGGTCTCCGTTAGTGCTAG: 0.314 z-score
TTAGATCTCAGTATCGCTTAGTGCTAG: 2.28 z-score
GACCGTTTCGACTATCGGGACGTGCTA: 6.45 z-score
TTAGGTCTCGGTTTCGATTAGTGCTAG: 7.79 z-score
TTAGATATCGGGTATCGATTAGTGCTA: 5.54 z-score
TCACTTCTTGAACTCTTACTGTGCTAG: 0.55 z-score
GACGATTTCTGGTATCGAGACGTGCTA: 2.01 z-score
TCATATGTCATTTACATACTGTGCTAG: 0.316 z-score
TCCAGGCTGGTCTCTAACTCAGTGCTA: -0.768 z-score
TCAGATTTCAGACTGGATTAGTGCTAG: 0.384 z-score
GACGGTATCCTACTGCTTACGTGCTAG: -0.23 z-score
GACGGTTTTCTTCTCCTGACGTGCTAG: 0.727 z-score
TTAGGTCTCCTTATCCATTAGTGCTAG: -0.223 z-score
GACGGTCTCCTTATGCTGACGTGCTAG: -0.262 z-score

Block 2 — method: RNA Bind-n-Seq; molecule type: RNA; sample: in vitro; concentration: 200 nM; setting: whole 134-nt RNA, ends assumed; added: 150 mM LiCl; baseline: input library; reading: higher = stronger binding; endpoint: log2 enrichment; library: 7-deaza-guanosine replaces G
Target: Fragile X messenger ribonucleoprotein 1, C-terminal low-complexity region (Fmr1, Mus musculus, UniProt P35922)
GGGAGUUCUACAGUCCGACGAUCCAAGUCCUGUGCUACACAUCGUAUGUACCGAAUCGGGAAAAAGGGUGGGUUUGGGAAAGUAUUAUGUUACGCCGUUCGGAUCUGCACUUCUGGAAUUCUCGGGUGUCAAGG: -1.62
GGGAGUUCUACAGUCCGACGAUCUGGCCCUGGUGGCAUGCGGGGAGGAAGAGGUGGCCUCAUGGAUCGUGGUGGUCCCGGUGGAAUGUUCAGAGGUGGCCGUGGUGGAGACAAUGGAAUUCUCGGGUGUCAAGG: 0.0105
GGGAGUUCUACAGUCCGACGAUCCCUGUGCUACACAUCGUAUGUACCGAAUCAAAUUUUUUUAAACCCCCAAAUUUUUUUAAAAAAGUAUUAUGUUACGCCGUUCGGAUCUGCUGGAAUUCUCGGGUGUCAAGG: -0.361
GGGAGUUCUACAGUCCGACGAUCUGGGCCUGGUGGCAUGCGGGGAGGAAGAGGUGGCCUCAUGGAUCGUGGUGGUCCCGGUGGAAUGUUCAGAGGUGGCCGUGGUGGAGACAGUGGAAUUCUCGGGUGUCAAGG: 0.618
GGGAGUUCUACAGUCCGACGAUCCAACUUUAGAGGAGGAUCUGAUGGAUAUGGCAGUGGACGUGGAUUUGGGGAUGGCUAUAAUGGGUAUGGAGGAGGACCUGGAGGUGGCAAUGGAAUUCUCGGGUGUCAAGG: 0.424
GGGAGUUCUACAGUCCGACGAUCUCCUGUGCUACACAUCGUAUGUACCGAAUCGGCCCCCCGGGCCCCCCGGGGCCCCCCGGAAAGUAUUAUGUUACGCCGUUCGGAUCUGCAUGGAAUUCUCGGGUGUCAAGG: -0.26
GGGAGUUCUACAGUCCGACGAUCUGGGAGGUGGAUUUUGUUUAUUUUUUUAGCUCAUUUCCAGGCGUGGGAAUUUUUUUUUAAUAUGUGUCAUGAAUAAAGUUGUUUUUGAAAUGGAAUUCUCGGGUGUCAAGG: -0.988
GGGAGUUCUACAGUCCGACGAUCUGAAUCCUUCCUUGAUGAUGAAGAGGUAUGUCAACAAGGGUAAUAAUUUGUUUUCUUCUGAUUACUCUCAUAUUUUUAUUAUCUUUUAUUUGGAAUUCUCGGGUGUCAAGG: -1.88

Block 3 — method: RNA Bind-n-Seq; molecule type: RNA; sample: in vitro; concentration: 365 nM; baseline: no-protein control; reading: higher = stronger binding; endpoint: RBNS enrichment (R)
Target: RNA binding protein fox-1 homolog 2, RRM domain, GST-SBP tag (RBFOX2, Homo sapiens, UniProt O43251-10, residues 100-194)
Setting: natural RNA segment, single round, ends assumed
Residues (chain): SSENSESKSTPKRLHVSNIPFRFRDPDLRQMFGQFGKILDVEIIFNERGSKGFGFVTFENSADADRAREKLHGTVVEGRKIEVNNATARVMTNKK
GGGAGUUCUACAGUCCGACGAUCACUGACUGAGGGGCCAUUGAGAGCCGGUGGGCUCUGCCAUGGAACCCUUCCGUUGAUUAGCAAUGACUGUGCUUGACCCACCCACCUACCCUACUAAUGAAUUUCUGUAGUGGAAUUCUCGGGUGCCAA: 0.2
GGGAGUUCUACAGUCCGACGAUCGAUUUAUGAACAGCUGUGUCUGCUACAUACACGUGCCCCUGUCUGAAGGCCAAGUGAUGGCUUCUGUUCUGGUGGCUUGAACUAACAGGUGGUGUAUCGCCACCUGACUCUGGAAUUCUCGGGUGCCAA: 0.31
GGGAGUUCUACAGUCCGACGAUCGAAGACCCUUUAGCUACCCCUCCUAUUGCUACUCGUGCACCUUCCAUUACACUCCCCCCUACCUUUCGCCCCCUCCUCACCAUUAUUGAGACCACCAAAGAUUCCCUGUCUGGAAUUCUCGGGUGCCAA: 1.66
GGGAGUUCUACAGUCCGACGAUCAUAUACAUAAUGUGCUUAACCACUGCCUUUUAAAACUUUAAAUUAAAUAAAACAUUGGGGUUGAUUCAAUUUGGCCAUCUGUGUGUGUUUCUUUAUAGAUACAUGGGCUAUGGAAUUCUCGGGUGCCAA: 0.417
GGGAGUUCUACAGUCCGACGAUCCCACCACAGAAAAGCACAAACCUCUGGGAAAGACAACGUCUCUCGGGGGCCAGGGGUCAUCGGUUUGACCCCUGACCUAUAAGCCAAGAUACCCCAUAAACACACUCAGAUGGAAUUCUCGGGUGCCAA: 0.457
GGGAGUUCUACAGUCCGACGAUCCUGUUCGGCCUUUGGGUGUGUGGUGGAUUCUCCCUGGGCCUCAGUGUGCCCAUCUGUAAAGGGGCAGCUGACAGUUUGUGGCAUCUUGCCAAGGGUCCCUGUGUGUGUGUUGGAAUUCUCGGGUGCCAA: 5.03
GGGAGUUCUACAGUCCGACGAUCGAUAAUAUGUGACUUUAGUCUAGUCUUCUCUGAGACUUUGAGACCCUUGGCUUGGCUGGUAUAAGUGUGUCAUCCGGACCACCAAACUUCAGAUUAAGCUGUUACUGAGUUGGAAUUCUCGGGUGCCAA: 0.686
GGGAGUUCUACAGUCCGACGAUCUCUUUUUUCCAUGGUCUCAUCUCUUGCCCUGUUGUGGAGUCUGUCUUCGGUGUCCUCCACACUGACACAGAUCCCCUCCUCAUGGUCGGCAGUUGUGCCCGUUUUUUGACUGGAAUUCUCGGGUGCCAA: 0.301

Block 4 — method: protein binding microarray; molecule type: double-stranded DNA, one strand shown; sample: in vitro; concentration: not given; baseline: not given; reading: higher = stronger binding; endpoint: E-score
Target: Histone acetyltransferase KAT6A, winged helix 2, GST fusion (KAT6A, Homo sapiens, UniProt Q92794, residues 85-181)
Setting: 8-mer, flanks averaged, mean of 2 arrays, mostly near background
Target sequence (chain): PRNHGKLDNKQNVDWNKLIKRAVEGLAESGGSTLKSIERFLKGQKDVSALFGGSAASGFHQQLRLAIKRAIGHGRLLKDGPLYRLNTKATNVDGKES
GCCACGGC: 0.133
ACCGGGAT: 0.0586
GAATAAAC: -0.0155
CCAAATCC: -0.02
AAAGCCTA: -0.0328
CGGGTGTA: -0.128
AGCAACCT: -0.0265
TCTGGGAA: 0.0268
TGGCCCAA: 0.155
ACTGGCTC: -0.0343
CCCACAGG: 0.0695
GATCACAA: 0.146
ACAAGTAG: -0.234
AAAGCAAT: 0.169
AACCAAGA: 0.156
CCGGAAAA: 0.166
CGTCATAG: -0.04
AATGAGTG: 0.017
ATCGAGCA: 0.173
AGGGATGA: -0.0371
ATCGGTGG: -0.14
AGCATTTA: 0.0515
AAGTTGTG: -0.0259
CAGAGACA: -0.109
CGACCAGA: -0.0288

Excerpt of the above (block 4):
CCAAATCC: -0.02
AAAGCCTA: -0.0328
CGGGTGTA: -0.128
AGCAACCT: -0.0265
TCTGGGAA: 0.0268
TGGCCCAA: 0.155
ACTGGCTC: -0.0343
CCCACAGG: 0.0695
GATCACAA: 0.146
